Measured values of several laboratories.
Numbers after ± are the reported error.

CC(C)[C@H](NC(=O)[C@@H]1CCCN1C(=O)[C@H](CCCNC(=N)N)NC(=O)[C@H](CS)NC(=O)[C@H](Cc1c[nH]c2ccccc12)NC(=O)[C@H](CCCNC(=N)N)NC(=O)[C@@H](Cc1ccccc1)NC(=O)[C@H](Cc1c[nH]cn1)NC(=O)[C@H](CCC(=O)O)NC(=O)[C@H](CS)NC(=O)[C@H](CS)NC(=O)[C@H](CCCCN)NC(=O)[C@@H]1CC(=O)N[C@@H](CCCNC(=N)N)C(=O)N[C@@H]([C@@H](C)O)C(=O)N[C@@H](CC(=O)O)C(=O)N[C@H](Cc2ccc(O)cc2)C(=O)N1)C(N)=O [technetium-99m labelled]
tissue uptake (C57 mouse, female, B16/F1 melanoma, stomach; intravenous, 2 h, added: NDP-MSH 10 µg co-injected): 1.11 ± 0.82 %ID/g

CC(=O)N[C@H](CCNC(=O)c1cc(NC(=O)c2cc(NC(=O)c3cc(NC(=O)c4nccn4C)cn3C)cn2C)cn1C)C(=O)Nc1cn(C)c(C(=O)Nc2cc(C(=O)Nc3cc(C(=O)Nc4cc(C(=O)NCCCN(C)CCCN[14C](=O)c5cccc([14C](=O)O)c5)n(C)c4)n(C)c3)n(C)c2)n1
tissue concentration (NSG mouse, male, LNCaP xenograft, LNCaP xenograft tumour; intraperitoneal, 20 nmol/animal, 24 h): 1.06 µM

COc1ccc(-c2cc(=O)c3c(OC)c(OC)c(OC)cc3o2)cc1OC
tissue to peel content ratio (C57BL/6 mouse, male, feces; oral, 1% w/w in diet, 6 weeks, orange peel extract diet; relative to: content in orange peel): 48.7%

COc1ccc(S(=O)(=O)Nc2nc(-c3cccc([N+](=O)[O-])c3)c(CN3CCCCC3)s2)cc1OC
tissue concentration (wild-type mouse, liver; oral, 300 mg/kg, 5 h): 5 µM

COc1ccc(OC)c(-c2oc3c(OC)c(OC)c(OC)cc3c(=O)c2OC)c1
tissue to peel content ratio (C57BL/6 mouse, male, small intestine; oral, 1% w/w in diet, 6 weeks, orange peel extract diet; relative to: content in orange peel): 2.54%

CCCC[C@@H]1NC(=O)[C@@H](NC(=O)[C@H](CCC(=O)O)NC(=O)CNC(=O)CN2CCN(CC(=O)O)CCN(CC(=O)O)CCN(CC(=O)O)CC2)CCCCNC(=O)C[C@@H](C(N)=O)NC(=O)[C@H](C(C)C)NC(=O)[C@@H]2CCCN2C(=O)[C@H](CCCNC(=N)N)NC(=O)CNC(=O)[C@H](Cc2c[nH]c3ccccc23)NC(=O)[C@H](CCCNC(=N)N)NC(=O)[C@@H](Cc2ccccc2)NC(=O)[C@H](Cc2c[nH]cn2)NC(=O)[C@H](CCC(=O)O)NC1=O [indium-111 labelled]
tissue uptake ratio (C57 mouse, B16/F10 lung metastasis; intravenous, 0.037 MBq, 24 h; relative to: lung over kidney): 0.02

COC(=O)C[C@](O)(CCCC(C)(C)O)C(=O)O[C@@H]1C(OC)=C[C@]23CCCN2CCc2cc4c(cc2[C@H]13)OCO4
tissue concentration (CD1 mouse, kidney; oral, 1 mg/kg, 24 h, below quantification limit 1.00 ng/mL): not detected

COc1ccc(-c2oc3c(OC)c(OC)c(OC)c(OC)c3c(=O)c2OC)cc1OC
tissue to peel content ratio (C57BL/6 mouse, male, plasma; oral, 1% w/w in diet, 6 weeks, orange peel extract diet; relative to: content in orange peel): 0.064%

CC(C)[C@H](NC(=O)[C@@H]1CCCN1C(=O)[C@H](CCCNC(=N)N)NC(=O)[C@H](CS)NC(=O)[C@H](Cc1c[nH]c2ccccc12)NC(=O)[C@H](CCCNC(=N)N)NC(=O)[C@@H](Cc1ccccc1)NC(=O)[C@H](Cc1c[nH]cn1)NC(=O)[C@H](CCC(=O)O)NC(=O)[C@H](CS)NC(=O)[C@H](CS)NC(=O)[C@H](CCCCN)NC(=O)[C@@H]1CC(=O)N[C@@H](CCCNC(=N)N)C(=O)N[C@@H](C(C)C)C(=O)N[C@@H](CC(=O)O)C(=O)N[C@H](Cc2ccc(O)cc2)C(=O)N1)C(N)=O [technetium-99m labelled]
tissue uptake (C57 mouse, female, B16/F1 melanoma, brain; intravenous, 2 h, added: NDP-MSH 10 µg co-injected): 0.03 ± 0.01 %ID/g

Repeated from above:
CC(=O)N[C@H](CCNC(=O)c1cc(NC(=O)c2cc(NC(=O)c3cc(NC(=O)c4nccn4C)cn3C)cn2C)cn1C)C(=O)Nc1cn(C)c(C(=O)Nc2cc(C(=O)Nc3cc(C(=O)Nc4cc(C(=O)NCCCN(C)CCCN[14C](=O)c5cccc([14C](=O)O)c5)n(C)c4)n(C)c3)n(C)c2)n1
tissue concentration (NSG mouse, male, LNCaP xenograft, LNCaP xenograft tumour; intraperitoneal, 20 nmol/animal, 24 h): 1.06 µM

COc1ccc(S(=O)(=O)Nc2nc(-c3cccc([N+](=O)[O-])c3)c(CN3CCCCC3)s2)cc1OC
tissue concentration (wild-type mouse, liver; oral, 300 mg/kg, 5 h): 5 µM
